{"data": "Measurements collected from several papers", "note": "A part holds a random share of what one study measured.", "sequence of UniProt Q14012 (whole entry, looked up)": "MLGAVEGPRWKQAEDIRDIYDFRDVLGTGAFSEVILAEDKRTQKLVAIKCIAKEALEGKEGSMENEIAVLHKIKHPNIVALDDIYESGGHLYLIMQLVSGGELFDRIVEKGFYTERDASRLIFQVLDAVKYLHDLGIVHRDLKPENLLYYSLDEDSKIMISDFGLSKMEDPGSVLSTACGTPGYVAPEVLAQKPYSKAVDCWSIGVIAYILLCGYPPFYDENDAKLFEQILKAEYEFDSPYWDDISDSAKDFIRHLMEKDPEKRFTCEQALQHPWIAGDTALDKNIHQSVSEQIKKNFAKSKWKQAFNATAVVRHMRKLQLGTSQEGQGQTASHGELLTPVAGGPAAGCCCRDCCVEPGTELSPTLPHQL", "sequence of UniProt P07332 (whole entry, looked up)": "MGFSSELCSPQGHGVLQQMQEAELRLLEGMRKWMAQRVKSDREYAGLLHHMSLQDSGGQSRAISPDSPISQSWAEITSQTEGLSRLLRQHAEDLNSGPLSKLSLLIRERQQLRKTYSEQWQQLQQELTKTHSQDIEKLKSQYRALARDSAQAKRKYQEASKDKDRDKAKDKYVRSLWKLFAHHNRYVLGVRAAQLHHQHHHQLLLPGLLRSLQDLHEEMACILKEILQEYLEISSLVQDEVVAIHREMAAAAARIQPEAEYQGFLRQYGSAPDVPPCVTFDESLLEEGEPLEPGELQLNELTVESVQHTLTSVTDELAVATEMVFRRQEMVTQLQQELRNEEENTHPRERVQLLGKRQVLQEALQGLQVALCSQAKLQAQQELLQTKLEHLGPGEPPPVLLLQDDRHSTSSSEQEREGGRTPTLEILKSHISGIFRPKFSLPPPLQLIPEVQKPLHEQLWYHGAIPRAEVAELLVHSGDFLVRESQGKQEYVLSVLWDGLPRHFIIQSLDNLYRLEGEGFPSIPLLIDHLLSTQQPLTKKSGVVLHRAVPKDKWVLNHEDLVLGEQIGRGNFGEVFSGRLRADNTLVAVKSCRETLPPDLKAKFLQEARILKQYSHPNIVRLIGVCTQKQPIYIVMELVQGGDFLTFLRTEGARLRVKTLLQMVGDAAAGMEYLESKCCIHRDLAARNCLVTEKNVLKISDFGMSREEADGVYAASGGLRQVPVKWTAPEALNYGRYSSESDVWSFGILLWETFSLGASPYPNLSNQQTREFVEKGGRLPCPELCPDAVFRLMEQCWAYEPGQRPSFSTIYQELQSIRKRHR", "sequence of UniProt O15146 (whole entry, looked up)": "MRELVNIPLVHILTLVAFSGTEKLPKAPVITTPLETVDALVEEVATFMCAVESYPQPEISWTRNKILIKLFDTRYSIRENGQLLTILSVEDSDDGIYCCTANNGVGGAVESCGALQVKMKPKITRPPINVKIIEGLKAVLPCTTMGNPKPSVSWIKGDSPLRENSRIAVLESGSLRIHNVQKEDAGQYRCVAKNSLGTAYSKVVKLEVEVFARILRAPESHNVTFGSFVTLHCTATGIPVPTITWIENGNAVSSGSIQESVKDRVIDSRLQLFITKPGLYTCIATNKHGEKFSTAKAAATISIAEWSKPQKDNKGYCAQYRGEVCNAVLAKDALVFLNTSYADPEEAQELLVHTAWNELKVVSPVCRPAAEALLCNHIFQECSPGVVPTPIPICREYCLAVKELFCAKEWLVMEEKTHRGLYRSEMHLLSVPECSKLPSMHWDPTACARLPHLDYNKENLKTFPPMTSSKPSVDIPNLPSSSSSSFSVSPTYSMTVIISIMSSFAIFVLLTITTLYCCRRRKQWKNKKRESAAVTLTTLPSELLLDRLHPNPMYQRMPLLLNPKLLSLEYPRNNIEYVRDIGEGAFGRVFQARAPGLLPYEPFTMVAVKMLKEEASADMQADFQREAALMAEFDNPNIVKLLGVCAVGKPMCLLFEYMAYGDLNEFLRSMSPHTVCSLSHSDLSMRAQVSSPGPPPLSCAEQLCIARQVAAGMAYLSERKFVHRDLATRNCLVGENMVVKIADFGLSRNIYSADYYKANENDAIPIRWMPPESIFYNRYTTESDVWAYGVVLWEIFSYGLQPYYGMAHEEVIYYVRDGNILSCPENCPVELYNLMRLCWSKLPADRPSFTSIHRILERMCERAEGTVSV", "sequence of UniProt Q9H0K1 (whole entry, looked up)": "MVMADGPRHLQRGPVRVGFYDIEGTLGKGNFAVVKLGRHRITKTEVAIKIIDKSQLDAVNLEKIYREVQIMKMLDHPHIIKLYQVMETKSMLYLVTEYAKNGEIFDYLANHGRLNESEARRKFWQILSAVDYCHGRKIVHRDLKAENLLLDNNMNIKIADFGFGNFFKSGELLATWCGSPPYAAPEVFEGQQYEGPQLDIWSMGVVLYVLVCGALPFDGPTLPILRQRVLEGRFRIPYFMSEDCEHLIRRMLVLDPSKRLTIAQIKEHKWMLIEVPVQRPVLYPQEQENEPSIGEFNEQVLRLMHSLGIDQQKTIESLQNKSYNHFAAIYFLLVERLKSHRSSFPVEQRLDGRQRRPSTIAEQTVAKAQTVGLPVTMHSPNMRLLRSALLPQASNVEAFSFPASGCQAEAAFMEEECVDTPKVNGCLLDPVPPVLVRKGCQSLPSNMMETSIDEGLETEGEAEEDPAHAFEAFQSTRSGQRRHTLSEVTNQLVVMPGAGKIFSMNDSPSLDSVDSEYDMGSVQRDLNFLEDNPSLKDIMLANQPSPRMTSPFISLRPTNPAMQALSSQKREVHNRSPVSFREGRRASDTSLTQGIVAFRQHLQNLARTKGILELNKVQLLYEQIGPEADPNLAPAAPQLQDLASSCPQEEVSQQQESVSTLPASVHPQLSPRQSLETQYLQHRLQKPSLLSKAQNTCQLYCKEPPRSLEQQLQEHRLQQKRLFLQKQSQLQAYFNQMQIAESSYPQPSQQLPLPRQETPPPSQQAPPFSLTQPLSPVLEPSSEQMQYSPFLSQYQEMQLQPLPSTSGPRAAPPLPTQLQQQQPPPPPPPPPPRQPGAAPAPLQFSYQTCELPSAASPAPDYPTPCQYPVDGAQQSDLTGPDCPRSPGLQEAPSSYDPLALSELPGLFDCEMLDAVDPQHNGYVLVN", "sequence of UniProt Q9UF33 (whole entry, looked up)": "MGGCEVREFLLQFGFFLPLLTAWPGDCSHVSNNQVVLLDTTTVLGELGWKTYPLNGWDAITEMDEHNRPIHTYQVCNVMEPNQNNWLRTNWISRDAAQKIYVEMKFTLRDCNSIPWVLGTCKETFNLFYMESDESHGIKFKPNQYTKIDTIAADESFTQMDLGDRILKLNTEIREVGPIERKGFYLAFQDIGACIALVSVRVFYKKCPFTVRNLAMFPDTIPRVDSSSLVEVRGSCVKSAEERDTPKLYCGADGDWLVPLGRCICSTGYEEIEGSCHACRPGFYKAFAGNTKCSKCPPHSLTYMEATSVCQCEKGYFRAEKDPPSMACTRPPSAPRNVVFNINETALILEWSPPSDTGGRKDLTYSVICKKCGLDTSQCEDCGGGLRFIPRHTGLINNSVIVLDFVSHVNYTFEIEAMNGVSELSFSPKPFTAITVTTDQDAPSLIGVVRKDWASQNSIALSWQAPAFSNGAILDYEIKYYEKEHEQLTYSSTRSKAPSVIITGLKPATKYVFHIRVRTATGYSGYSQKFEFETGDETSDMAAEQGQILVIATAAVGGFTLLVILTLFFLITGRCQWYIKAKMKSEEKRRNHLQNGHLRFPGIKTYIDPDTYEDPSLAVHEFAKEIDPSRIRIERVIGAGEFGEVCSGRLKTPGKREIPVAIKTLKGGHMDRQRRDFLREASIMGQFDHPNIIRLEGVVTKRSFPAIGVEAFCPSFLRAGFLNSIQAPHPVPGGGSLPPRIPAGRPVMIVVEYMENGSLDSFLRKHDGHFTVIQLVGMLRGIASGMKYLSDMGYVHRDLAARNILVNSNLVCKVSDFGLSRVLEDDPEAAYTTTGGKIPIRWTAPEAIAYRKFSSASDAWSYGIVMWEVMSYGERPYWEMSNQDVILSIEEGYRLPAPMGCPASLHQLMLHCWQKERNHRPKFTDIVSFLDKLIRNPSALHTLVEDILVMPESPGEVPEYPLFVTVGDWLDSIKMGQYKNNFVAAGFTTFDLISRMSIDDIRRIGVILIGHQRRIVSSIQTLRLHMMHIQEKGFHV", "sequence of UniProt P07947 (whole entry, looked up)": "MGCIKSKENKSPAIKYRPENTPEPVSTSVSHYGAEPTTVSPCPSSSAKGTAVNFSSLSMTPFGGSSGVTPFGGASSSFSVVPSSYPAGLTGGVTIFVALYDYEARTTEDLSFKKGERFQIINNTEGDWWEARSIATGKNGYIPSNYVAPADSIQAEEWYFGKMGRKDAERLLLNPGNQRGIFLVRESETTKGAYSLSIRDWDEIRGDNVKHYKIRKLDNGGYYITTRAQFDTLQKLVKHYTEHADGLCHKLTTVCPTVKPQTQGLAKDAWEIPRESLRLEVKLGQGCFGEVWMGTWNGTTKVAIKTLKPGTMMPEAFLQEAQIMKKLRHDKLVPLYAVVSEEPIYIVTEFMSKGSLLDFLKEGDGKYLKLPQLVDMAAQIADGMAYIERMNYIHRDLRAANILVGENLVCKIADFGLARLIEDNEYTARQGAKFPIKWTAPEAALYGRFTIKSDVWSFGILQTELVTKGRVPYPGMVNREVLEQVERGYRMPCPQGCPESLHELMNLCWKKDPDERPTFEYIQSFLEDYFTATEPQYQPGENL", "sequence of UniProt P37023 (whole entry, looked up)": "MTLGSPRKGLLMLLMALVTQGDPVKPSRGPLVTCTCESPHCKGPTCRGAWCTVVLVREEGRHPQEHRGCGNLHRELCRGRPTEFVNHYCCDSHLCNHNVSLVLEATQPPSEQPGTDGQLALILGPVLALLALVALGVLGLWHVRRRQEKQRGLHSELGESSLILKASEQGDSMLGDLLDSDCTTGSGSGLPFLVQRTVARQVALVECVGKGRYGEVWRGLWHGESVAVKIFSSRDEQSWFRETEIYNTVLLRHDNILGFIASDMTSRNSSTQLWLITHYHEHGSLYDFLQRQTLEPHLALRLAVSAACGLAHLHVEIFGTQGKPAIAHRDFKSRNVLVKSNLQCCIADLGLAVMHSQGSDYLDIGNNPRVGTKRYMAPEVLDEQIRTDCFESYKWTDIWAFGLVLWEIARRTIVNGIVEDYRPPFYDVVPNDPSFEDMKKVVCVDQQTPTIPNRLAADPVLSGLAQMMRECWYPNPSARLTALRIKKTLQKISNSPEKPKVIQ"}
{"data": "Series 1", "sample": "hydrocarbon/water"}
{"SMILES": "CC(C)C[C@@H]1NC(=O)[C@H](Cc2ccccc2)NC(=O)[C@H]2CCCN2C(=O)[C@H](CC(C)C)NC(=O)[C@H](C)NC(=O)[C@@H](C)NC1=O", "logD": -1.64}
{"SMILES": "CCOC(=O)[C@@H]1CSCC(=O)N[C@H](CC)C(=O)N(CC(C)C)CC(=O)N[C@@H](CC(C)C)C(=O)N(C)[C@H](C)C(=O)N(C)[C@@H](C)C(=O)N[C@H](CC(C)C)C(=O)N(C)[C@H](C)C(=O)N[C@@H](CC(C)C)C(=O)N1C", "logD": 1.51}
{"SMILES": "CCOC(=O)[C@@H]1CSCC(=O)N[C@@H](CC)C(=O)N(C)[C@@H](C)C(=O)N[C@H](CC(C)C)C(=O)N2CCC[C@@H]2C(=O)N(CC(C)C)CC(=O)N[C@@H](CC(C)C)C(=O)N(C)[C@H](C)C(=O)N[C@@H](CC(C)C)C(=O)N1C", "logD": 0.746}
{"SMILES": "CCC[C@@H]1NC(=O)CN(CC)C(=O)[C@H](CC(C)C)NC(=O)Cn2cc(nn2)CN(C)C(=O)[C@H](CC(C)C)NC(=O)[C@H](C)N(C)C(=O)[C@H](CC(C)C)NC(=O)[C@H](C)N(C)C(=O)[C@H]2CCCN2C1=O", "logD": -1.2}
{"SMILES": "CCCN1CC(=O)N[C@@H](CC(C)C)C(=O)N2CCC[C@@H]2C(=O)N(C)[C@@H](C)C(=O)N[C@@H](CC(C)C)C(=O)N(C)[C@@H](C)C(=O)N[C@@H](CC(C)C)C(=O)N(C)Cc2cn(nn2)CC(=O)N[C@@H](CC(C)C)C1=O", "logD": -0.12}
{"SMILES": "CCN1CC(=O)N[C@@H](CC(C)C)C(=O)N2CCC[C@@H]2C(=O)N(C)[C@@H](CC(C)C)C(=O)N[C@@H](C)C(=O)N(CC2CCOCC2)CC(=O)N[C@@H](Cc2ccccc2)C(=O)N2CCC[C@@H]2C(=O)N(C)[C@@H](CC(C)C)C(=O)N[C@@H](C)C1=O", "logD": 1.25}
{"data": "Series 2", "SMILES": "CCC(=O)Nc1ccc2ncnc(Nc3cccc(Br)c3)c2c1", "effect on": "enzyme activity", "action": "inhibitor", "tested at": "0.5 µM", "relative to": "control"}
{"target": "PAK1 (Homo sapiens, UniProt Q13153)", "remaining activity [%]": 96.3}
{"target": "CAMKK1 (Homo sapiens, UniProt Q8N5S9)", "remaining activity [%]": 99.8}
{"target": "MELK (Homo sapiens, UniProt Q14680)", "remaining activity [%]": 93.4}
{"target": "PAK5 (Homo sapiens, UniProt Q9P286)", "remaining activity [%]": 91.6}
{"target": "PAK4 (Homo sapiens, UniProt O96013)", "remaining activity [%]": 105}
{"target": "SGK2 (Homo sapiens, UniProt Q9HBY8)", "remaining activity [%]": 96.2}
{"target": "MUSK (Homo sapiens, UniProt O15146)", "remaining activity [%]": 87.8}
{"target": "CSNK1E (Homo sapiens, UniProt P49674)", "remaining activity [%]": 98.2}
{"target": "YES1 (Homo sapiens, UniProt P07947)", "remaining activity [%]": 87}
{"target": "ACVRL1 (Homo sapiens, UniProt P37023)", "remaining activity [%]": 97.4}
{"target": "EPHA2 (Homo sapiens, UniProt P29317)", "remaining activity [%]": 101}
{"target": "PRKCZ (Homo sapiens, UniProt Q05513)", "remaining activity [%]": 95.7}
{"target": "RPS6KA3 (Homo sapiens, UniProt P51812)", "remaining activity [%]": 95}
{"target": "Cyclin-dependent kinase 2, with cyclin E (CDK2, Homo sapiens, UniProt P24941)", "remaining activity [%]": 84.9}
{"target": "CLK1 (Homo sapiens, UniProt P49759)", "remaining activity [%]": 84.5}
{"target": "CLK2 (Homo sapiens, UniProt P49760)", "remaining activity [%]": 101}
{"target": "SIK2 (Homo sapiens, UniProt Q9H0K1)", "remaining activity [%]": 98.7}
{"target": "TYRO3 (Homo sapiens, UniProt Q06418)", "remaining activity [%]": 101}
{"target": "PAK6 (Homo sapiens, UniProt Q9NQU5)", "remaining activity [%]": 101}
{"target": "PRKCQ (Homo sapiens, UniProt Q04759)", "remaining activity [%]": 96.3}
{"target": "MARK1 (Homo sapiens, UniProt Q9P0L2)", "remaining activity [%]": 98.5}
{"target": "CAMK1 (Homo sapiens, UniProt Q14012)", "remaining activity [%]": 88.9}
{"target": "BRSK2 (Homo sapiens, UniProt Q8IWQ3)", "remaining activity [%]": 94.3}
{"target": "EPHA6 (Homo sapiens, UniProt Q9UF33)", "remaining activity [%]": 79.5}
{"target": "FES (Homo sapiens, UniProt P07332)", "remaining activity [%]": 102}
{"data": "Series 3", "target": "Diamine acetyltransferase 1 (Homo sapiens, UniProt P21673)", "action": "inhibitor", "tested at": "10 µM", "relative to": "control", "Construct (P21673 1-171)": "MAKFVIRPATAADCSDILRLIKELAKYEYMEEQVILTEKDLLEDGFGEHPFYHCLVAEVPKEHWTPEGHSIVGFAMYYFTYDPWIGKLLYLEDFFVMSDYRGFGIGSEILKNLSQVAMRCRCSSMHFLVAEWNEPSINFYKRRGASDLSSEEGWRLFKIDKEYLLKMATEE"}
{"SMILES": "COc1ccc([C@@H]2CC(=O)c3c(O)cc(O[C@@H]4O[C@H](CO)[C@@H](O)[C@H](O)[C@H]4O)cc3O2)cc1O", "remaining activity": "98.2%"}
{"SMILES": "CCCCC/C=C/C=C/C(=O)NCC(C)C", "remaining activity": "114%"}
{"SMILES": "O=c1cc(-c2ccc(O)cc2)oc2cc(O)c([C@@H]3O[C@H](CO)[C@@H](O)[C@H](O)[C@H]3O)c(O)c12", "remaining activity": "114%"}
{"SMILES": "COc1cc(/C=C/C(=O)O)ccc1O", "remaining activity": "73.7%"}
{"SMILES": "CCCCCCCCCCCCCCCCCCCC(=O)OC", "remaining activity": "111%"}
{"SMILES": "CCCCCCCCCCCCCCCCCCCCC", "remaining activity": "85.6%"}
{"SMILES": "OCCCO", "remaining activity": "102%"}
{"SMILES": "O=C(O)c1cc(=O)cc(C(=O)O)o1", "remaining activity": "86.1%"}
{"SMILES": "CCCCCC/C=C\\CCCCCCCc1cccc(O)c1C(=O)O", "remaining activity": "94.8%"}
{"SMILES": "C/C(=C\\CO)CCC[C@H](C)CCC[C@H](C)CCCC(C)C", "remaining activity": "98.5%"}
{"data": "Series 4", "SMILES": "CCN(c1nc(N)c(C(=O)N=C(N)N)nc1Cl)C(C)C", "effect on": "β-arrestin recruitment", "action": "agonist", "technique": "PRESTO-Tango", "tested at": "10 µM", "relative to": "untreated"}
{"target": "VIPR2 (Homo sapiens, UniProt P41587)", "fold over basal": "0.33 fold"}
{"target": "Probable G-protein coupled receptor 82 (GPR82, Homo sapiens, UniProt Q96P67)", "fold over basal": 0.76}
{"target": "GPR3 (Homo sapiens, UniProt P46089)", "fold over basal": 1.84}
{"target": "P2Y purinoceptor 14 (P2RY14, Homo sapiens, UniProt Q15391)", "fold over basal": 1.01}
{"target": "Oxytocin receptor (OXTR, Homo sapiens, UniProt P30559)", "fold over basal": 0.84}
{"target": "Mas-related G-protein coupled receptor member E (MRGPRE, Homo sapiens, UniProt Q86SM8)", "fold over basal": 1.05}
{"data": "Series 5", "Structure (SMILES)": "CCC(=O)N[C@@H]1CC[C@H](C(=O)N(C)c2ccc(-c3nc4ccccc4o3)cc2)C1", "effect on": "cell-free assay", "technique": "competition with immobilised ligand", "tested at": "1 µM"}
{"target": "MAPKAPK5 (Homo sapiens, UniProt Q8IW41)", "remaining binding": "100%"}
{"target": "STK35 (Homo sapiens, UniProt Q8TDR2)", "remaining binding": "100%"}
{"target": "NEK6 (Homo sapiens, UniProt Q9HC98)", "remaining binding": "99%"}
{"target": "MAPK15 (Homo sapiens, UniProt Q8TD08)", "remaining binding": "100%"}
{"target": "SBK1 (Homo sapiens, UniProt Q52WX2)", "remaining binding": "100%"}
{"target": "PAK2 (Homo sapiens, UniProt Q13177)", "remaining binding": "86%"}
{"note": "Some of these lines once more (series 2):"}
{"target": "PRKCZ (Homo sapiens, UniProt Q05513)", "remaining activity [%]": 95.7}
{"target": "RPS6KA3 (Homo sapiens, UniProt P51812)", "remaining activity [%]": 95}
{"target": "Cyclin-dependent kinase 2, with cyclin E (CDK2, Homo sapiens, UniProt P24941)", "remaining activity [%]": 84.9}
{"target": "CLK1 (Homo sapiens, UniProt P49759)", "remaining activity [%]": 84.5}
{"target": "CLK2 (Homo sapiens, UniProt P49760)", "remaining activity [%]": 101}
{"target": "SIK2 (Homo sapiens, UniProt Q9H0K1)", "remaining activity [%]": 98.7}
